Assay results of several laboratories.
Each numbered part is a random draw from the data of one study; scales do not carry over between parts.

Block 1
Target: Histone acetyltransferase KAT6A, winged helix 1, GST fusion (KAT6A, Homo sapiens, UniProt Q92794, residues 1-85)
Technique: protein binding microarray
Form: double-stranded DNA, one strand shown
Sample: in vitro
Concentration: not given
Notes: 8-mer, flanks averaged, mean of 2 arrays, mostly near background
Reference: not given
Reading: higher = stronger binding
Construct (chain): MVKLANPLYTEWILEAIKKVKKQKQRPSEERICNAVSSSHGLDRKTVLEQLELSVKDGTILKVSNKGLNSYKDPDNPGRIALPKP
`CGCGTTTA` gave an E-score of 0.261.
`CTGGTGAA` has an E-score of -0.0958.
With `ACCGTTGC` the E-score was 0.231.
The E-score of `ATATAACC` is reported as -0.123.
The E-score of `AGGGTACC` is reported as -0.017.
`GCGGCTAC` has an E-score of 0.396.
With `ATCCCTCG` the E-score was -0.027.
For `ACGCCATC`, the E-score was 0.0621.
With `CTGGGTAC` the E-score was -0.0924.
For `GTCAATAA`, the E-score was -0.0799.
`CTGTACAA` gave an E-score of -0.156.
For `GCATGCCA`, the E-score was -0.0895.
For `AAGCCGGA`, the E-score was 0.163.
With `ACCACCAC` the E-score was -0.197.
With `GTAGCGTA` the E-score was 0.215.
For `GACTTGGC`, the E-score was -0.207.
With `CCCCCTCA` the E-score was -0.302.
`AGTCCCAC` has an E-score of -0.22.
`TGATTCAA` gave an E-score of -0.064.
`GGTGCGCA` has an E-score of 0.336.
The E-score of `CCCGCCAC` is reported as 0.235.
`AGAATCCC` gave an E-score of -0.0124.
`ATCCGCTA` gave an E-score of 0.258.
`AAGACACG` gave an E-score of 0.0531.
The E-score of `CAAGTGGC` is reported as -0.0335.

Block 2
Target: Ras GTPase-activating protein-binding protein 1, full length (G3BP1, Homo sapiens, UniProt Q13283)
Sequence of UniProt Q13283 (whole entry, looked up): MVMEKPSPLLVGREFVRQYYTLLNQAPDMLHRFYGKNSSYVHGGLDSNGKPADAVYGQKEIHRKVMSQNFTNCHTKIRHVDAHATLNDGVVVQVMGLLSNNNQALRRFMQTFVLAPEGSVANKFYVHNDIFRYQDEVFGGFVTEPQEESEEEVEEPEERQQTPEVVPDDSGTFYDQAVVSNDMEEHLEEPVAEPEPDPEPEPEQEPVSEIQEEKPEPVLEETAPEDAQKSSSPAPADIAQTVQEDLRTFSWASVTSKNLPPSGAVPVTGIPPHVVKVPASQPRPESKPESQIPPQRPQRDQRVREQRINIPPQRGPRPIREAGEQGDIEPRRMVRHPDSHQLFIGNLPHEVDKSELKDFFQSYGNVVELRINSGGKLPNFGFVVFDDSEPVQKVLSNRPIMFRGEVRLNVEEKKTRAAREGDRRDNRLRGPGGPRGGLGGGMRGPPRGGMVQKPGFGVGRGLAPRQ
Technique: RNA Bind-n-Seq
Form: RNA
Sample: in vitro
Concentration: 200 nM
Notes: whole 134-nt RNA, ends assumed
Added: 150 mM LiCl
Reference: input library
Reading: higher = stronger binding
Library: 7-deaza-guanosine replaces G
All sequences stand within: GGGAGUUCUACAGUCCGACGAUC … UGGAAUUCUCGGGUGUCAAGG
`ACCAUGCAGGUGGGCAUCUUUGGGAAGUGGGGCAAGGGGGGGAUAGCGAGGGGGGUAACACUUUGGGAACAGGUGGUCCCAGGUCGUUUC` gave a log2 enrichment of 0.235.
For `UCCUUUUUUUUUUUCUUUGAAUGUAUUUAUUUCUUGUAGUCUACUGGUGCUGUUGUGACGGAGAGCCAGACGUACAAAAACCGAGCUGGU`, the log2 enrichment was 1.13.
For `UGCAGUCGAGCCAGCACCUGUUUCUGGACCUGCCUAAGGUAAGUGAGCUUUUCUCUCAACCUAGUUUUCAGGAGGCCUCUUCUGUCCCCU`, the log2 enrichment was 0.222.
The log2 enrichment of `GUCCUGUGCUACACAUCGUAUGUACCGAAUCGGGGUUUUUUUGGGGAGGGGUUUGGGGAAAGUAUUAUGUUACGCCGUUCGGAUCUGCAC` is reported as -0.0371.
The log2 enrichment of `UGGUGUUAUUUUUGCACUACAAGGGCUCUGAAGACUGCCAGGCUUGAAAUGAAGAACGAUGUCACCUGCCUAUCACAGCCAGGUGACAAU` is reported as -3.64.
`UGGGAGGUGGAUUUUGUUUAUUUUUUUAGCUCAUUUCCAGGGGUGGGAAUUUUUUUUUAAUAUGUGUCAUGAAUAAAGUUGUUAUUGAAA` gave a log2 enrichment of -0.238.
`AAGUCCUGUGCUACACAUCGUAUGUACCGAAUCGGUUUUUUUGGAAAAAAAGGAGGAAAGUAUUAUGUUACGCCGUUCGGAUCUGCACUU` gave a log2 enrichment of -2.06.
`UUGAGAAGAAGCAAAAAGAGAUGGAUGAAGCUGCUACGGUGAGAGAAAACCCACUAUCGAUUCCACUCACCACUUACCUCCUUCCCUUAC` has a log2 enrichment of -0.82.

Block 3
Target: Interferon regulatory factor 7, full length, phosphomimetic (IRF7, Homo sapiens, UniProt Q92985, residues 1-503, S471D/S472D/S475D/S476D/S477D/S483D/S484D/S487D)
Technique: protein-binding microarray
Form: double-stranded DNA, one strand shown
Sample: in vitro
Concentration: 2200 nM top
Notes: 60-bp whole probe
Added: salmon DNA 0.4 mg/ml
Reference: random background probes
Reading: higher = stronger binding
All sequences stand within: GCCTAGCAC … GTCTTGATTCGCTTGACGCTGCTG
Target sequence (chain): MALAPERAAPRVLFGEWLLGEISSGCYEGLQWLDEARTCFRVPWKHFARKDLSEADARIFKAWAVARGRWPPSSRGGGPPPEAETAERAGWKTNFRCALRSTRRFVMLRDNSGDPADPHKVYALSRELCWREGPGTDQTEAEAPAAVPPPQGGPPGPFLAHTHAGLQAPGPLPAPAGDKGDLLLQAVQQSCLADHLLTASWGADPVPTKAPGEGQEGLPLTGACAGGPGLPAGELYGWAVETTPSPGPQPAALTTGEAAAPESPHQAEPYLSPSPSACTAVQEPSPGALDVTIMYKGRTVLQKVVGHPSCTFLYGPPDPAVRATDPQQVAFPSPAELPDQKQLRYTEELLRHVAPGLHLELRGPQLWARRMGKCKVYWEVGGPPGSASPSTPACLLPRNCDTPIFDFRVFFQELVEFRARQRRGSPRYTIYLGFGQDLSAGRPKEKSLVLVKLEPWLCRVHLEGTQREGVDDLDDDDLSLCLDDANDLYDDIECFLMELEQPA
For `GCCGATTTCGGGTTTCGAGACGTGCTA`, “fitted relative affinity” read 6.22 z-score.
Under “fitted relative affinity”, `TCAGGTTTGAGTCTTCTACTGTGCTAG` is recorded as 0.731 z-score.
`CACAGAACATATTAGTATATGTGCTAG`: “fitted relative affinity” -0.0603 z-score.
For `GACGGTTTCGGGTTTCCGGACGTGCTA`, “fitted relative affinity” read 9.03 z-score.
Under “fitted relative affinity”, `TTAAGCCCACTATCTAGCCCGTGCTAG` is recorded as 0.00774 z-score.
`TCACTGGTCACTCTCTGACTGTGCTAG`: “fitted relative affinity” 0.684 z-score.
For `GACGAACTGGGGACTGGGGACGTGCTA`, “fitted relative affinity” read -0.182 z-score.
`TTCAGTTTTCTTTTCCATTTGTGCTAG` — result for “fitted relative affinity”: 5.94 z-score.
`TTAGAACTGAGAATGGATTAGTGCTAG` — result for “fitted relative affinity”: -0.884 z-score.
Under “fitted relative affinity”, `TTAGATATCAGACTGGCTTAGTGCTAG` is recorded as -0.313 z-score.
For `TTACTTCCCAATTGTCTTTTCGTGCTA`, “fitted relative affinity” read 3.11 z-score.
Under “fitted relative affinity”, `TCACTTCCCCATCTTGTACTGTGCTAG` is recorded as 3.36 z-score.
`TCTCTTTCCAACTCTGTTTTCGTGCTA` — result for “fitted relative affinity”: 3.72 z-score.
Under “fitted relative affinity”, `TCATGGCTCCCTATAAAACTGTGCTAG` is recorded as 0.338 z-score.
`TCAAGTCTAGCCATTGTGACTGTGCTA` — result for “fitted relative affinity”: -0.0626 z-score.
`TCATATATATTATATATTACTGTGCTA`: “fitted relative affinity” 0.462 z-score.
`TCATTTTTGGTTTCTGGACTGTGCTAG` — result for “fitted relative affinity”: 5.67 z-score.
For `TCATCTGTCCCTCTGTGACTGTGCTAG`, “fitted relative affinity” read 1.56 z-score.
Under “fitted relative affinity”, `TTAGGTATCGTACTGGGTTAGTGCTAG` is recorded as 0.538 z-score.

Block 4
Target: Sal-like protein 4, full length isoform B (SALL4, Homo sapiens, UniProt Q9UJQ4-2, residues 1-616)
Technique: universal PBM
Form: double-stranded DNA, one strand shown
Sample: in vitro
Concentration: not given
Notes: 8-mer, flanks averaged, mean of replicates
Reading: higher = stronger binding
Construct (chain): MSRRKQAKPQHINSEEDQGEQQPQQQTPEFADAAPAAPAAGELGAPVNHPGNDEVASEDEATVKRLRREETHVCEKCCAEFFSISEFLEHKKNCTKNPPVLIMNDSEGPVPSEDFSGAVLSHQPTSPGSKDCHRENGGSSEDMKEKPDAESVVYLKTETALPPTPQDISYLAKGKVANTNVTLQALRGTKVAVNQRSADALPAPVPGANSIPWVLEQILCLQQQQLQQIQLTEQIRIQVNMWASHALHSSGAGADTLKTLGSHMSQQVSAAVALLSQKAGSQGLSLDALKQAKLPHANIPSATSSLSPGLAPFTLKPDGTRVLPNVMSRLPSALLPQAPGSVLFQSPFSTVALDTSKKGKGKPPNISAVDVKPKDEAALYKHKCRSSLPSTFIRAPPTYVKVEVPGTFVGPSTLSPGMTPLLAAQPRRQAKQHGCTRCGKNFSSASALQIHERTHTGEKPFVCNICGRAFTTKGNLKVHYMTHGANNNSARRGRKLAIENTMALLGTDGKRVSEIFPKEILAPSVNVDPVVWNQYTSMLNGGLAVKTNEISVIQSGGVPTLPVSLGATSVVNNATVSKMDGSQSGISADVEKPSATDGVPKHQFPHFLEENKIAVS
`CCAGTCCA` gave an E-score of -0.36.
The E-score of `GATCTGGC` is reported as -0.133.
`CCTACCGA` has an E-score of 0.00228.
`AGGCACCG` gave an E-score of -0.225.
The E-score of `GCCCACAC` is reported as -0.109.
`GGTAGAAA` gave an E-score of -0.0243.
`CCTTGTTA` gave an E-score of 0.202.
For `CACGATGG`, the E-score was -0.168.
With `AGGATTTA` the E-score was 0.214.
The E-score of `GTTCTAAA` is reported as 0.192.
For `AAACCGAC`, the E-score was -0.171.
`AGGACTCA` has an E-score of -0.0385.
The E-score of `AACGCGTT` is reported as -0.0312.
For `ATAGTGAG`, the E-score was 0.191.
`AACATGGA` has an E-score of 0.213.
The E-score of `GGGACGTA` is reported as -0.0927.
For `AGCATTTA`, the E-score was 0.114.
With `CCGCAACA` the E-score was 0.00269.
`GCCTTAGC` has an E-score of -0.164.
`GTCCACTA` gave an E-score of -0.0126.
`AGCACCTA` gave an E-score of -0.0732.
With `CCACTTCA` the E-score was -0.0143.
The E-score of `ACTTTCAC` is reported as 0.127.
With `CGCGTCCG` the E-score was -0.315.
`AGGCGCGG` gave an E-score of -0.393.

Repeated from above (block 1):
For `GACTTGGC`, the E-score was -0.207.
For `ACGCCATC`, the E-score was 0.0621.
For `GTCAATAA`, the E-score was -0.0799.
For `GCATGCCA`, the E-score was -0.0895.
The E-score of `CAAGTGGC` is reported as -0.0335.
With `ACCACCAC` the E-score was -0.197.
`CTGGTGAA` has an E-score of -0.0958.
With `GTAGCGTA` the E-score was 0.215.
With `ACCGTTGC` the E-score was 0.231.
